# Measured values collected from several papers.
# Each numbered part is a random draw from the data of one study; scales do not carry over between parts. Changes are numbered by the printed parent chain.

# Series 1
# Target: RNA binding protein fox-1 homolog 2, RRM domain, GST-SBP tag (RBFOX2, Homo sapiens, UniProt O43251-10, residues 100-194)
# Technique: RNA Bind-n-Seq
# Molecule type: RNA
# Matrix: in vitro
# Tested at: 365 nM
# Setting: natural RNA segment, single round, ends assumed
# Relative to: no-protein control
# Direction: higher = stronger binding
# All sequences stand within: GGGAGUUCUACAGUCCGACGAUC … UGGAAUUCUCGGGUGCCAA
Sequence,RBNS enrichment (R)
AGUAGCUUCCUGCCUGGGAGAUGGCUCUCUCUGCAGAAGUCUGGUGUUUUAGCCUUCAGGUGUUUGGUUUUGUAUGUGCUCCCUCAUUUUAAACAUUAAACCAAACUUCU,0.455
AGACCCCACGCCCCUCACUGAGCUCCCAGUUCAGAGGAAAGCCAGACAAUUAAACAGCAGUUACAAUAUGUGUGUGGCUUCUGUCUACUCAAGUUUCCUCUCAGGUCCUC,0.368
UCGAAGUGCCCAGAUUUGACUCCUAAGUUCUAGGAGACUGUAGCGCAGGGUCUGUCAACCUUAGCACUAUUGGCAUUUGGGGCUGGGUAAUUCUUUCUUGUGGGGGCCGU,0.433
AGAGGUUGAUGAAUGGAAAUUCUUUCACUUCAUUAUAUGCAAGUUUUCAAUAAUUAGGUCUAAGUGGAGUUUUAAGGUUACUGAUGACUUACAAAUAAUGGGCUCUGAUU,0.675
UGCUGUGCUUCCGGGCAGUGCCAGGCACUCCCUUGUGGGGCUCAUGCUCCUUCUACCUACCGGUCAGUGCAUUCAGAAGUGGACAGCUCCCGGAAGGCCGAGUUCUGGUA,0.403
GGGGGUCCACCCGCCUCCAUCUGGAUACUACAACCUCCCUCCUUCCUAAGUUUUGAGGUGGGGUGAUGGCCCUCUACUUCCCUGUUUAUAGUCUAACUCACCUAUUAACC,0.512
UCCCUGUUGUCUGGAAACAGUUGAGUUGGAGCCUGUUGCCAAUGCUGCCCUCUGCCACCCUGUGGCUGCCCUGGCUCUCUGGUCUCUAUCACCCACACAGCACCAUCUCC,0.527
GGAGGCCAAGGUCAGAAAGAUGCCCCGAGAAGCUCCAGCUUUGCUUUCUGCCCAGCCCAUCUUGCCUGCAUGGUGCCUCUGGGUCUUUAAAGGAGGGUGGUAGGUACCAA,6.43

# Series 2
# Target: Sox, HMG box (Pigoraptor chileana)
# Technique: Spec-seq
# Molecule type: double-stranded DNA, one strand shown
# Matrix: in vitro
# Tested at: not given
# Setting: whole probe, mean of replicates
# Relative to: not given
# Direction: lower = stronger binding
# All sequences stand within: GAGTCGTCTCGTCAGCAC … CCGTAGAGCACTCAGGTC
# Residues (chain): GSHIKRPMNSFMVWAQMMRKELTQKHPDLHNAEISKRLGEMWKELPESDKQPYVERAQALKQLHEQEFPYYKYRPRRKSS
Sequence,relative binding energy
CATACAT,-0.187 ln ratio
CATTATA,-1.81 ln ratio
AATTGTT,-3.27 ln ratio
CATCTAC,0.632 ln ratio
CATCCAA,0.0597 ln ratio
AAAGGTT,-2.09 ln ratio
TGCTGTT,-0.604 ln ratio
CATTCCC,0.905 ln ratio

# Mixed results
# P1: viral docking peptide; TSVRRALFTGGSD; partner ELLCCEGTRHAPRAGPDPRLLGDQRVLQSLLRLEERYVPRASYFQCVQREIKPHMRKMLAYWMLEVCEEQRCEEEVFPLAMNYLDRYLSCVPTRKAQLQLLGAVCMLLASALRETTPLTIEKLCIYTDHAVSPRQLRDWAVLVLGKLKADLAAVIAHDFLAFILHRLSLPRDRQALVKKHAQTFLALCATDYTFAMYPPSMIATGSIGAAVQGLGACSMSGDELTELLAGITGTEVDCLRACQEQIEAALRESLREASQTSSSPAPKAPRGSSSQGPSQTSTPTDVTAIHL
# P2: PafA, mature enzyme, eGFP fusion (Elizabethkingia meningoseptica, UniProt Q9KJX5); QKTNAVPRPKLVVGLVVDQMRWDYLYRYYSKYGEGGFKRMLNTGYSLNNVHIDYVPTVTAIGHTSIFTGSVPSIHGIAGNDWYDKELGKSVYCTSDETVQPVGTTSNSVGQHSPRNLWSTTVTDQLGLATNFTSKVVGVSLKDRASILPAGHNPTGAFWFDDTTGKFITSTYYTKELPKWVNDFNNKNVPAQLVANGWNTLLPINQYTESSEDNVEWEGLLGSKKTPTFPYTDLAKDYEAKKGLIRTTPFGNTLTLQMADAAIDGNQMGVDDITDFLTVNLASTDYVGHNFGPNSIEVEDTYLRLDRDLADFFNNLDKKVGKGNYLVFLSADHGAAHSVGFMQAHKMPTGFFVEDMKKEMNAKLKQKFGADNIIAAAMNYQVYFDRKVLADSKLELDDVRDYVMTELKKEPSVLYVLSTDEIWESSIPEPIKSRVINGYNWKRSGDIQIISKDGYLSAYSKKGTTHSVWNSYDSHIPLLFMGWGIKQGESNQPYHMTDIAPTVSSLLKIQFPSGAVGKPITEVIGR
Molecule,target,test,system,setting,how to read,quantity,value
P1 S12E,"CCND3, cyclin fold, Cln2 fusion (human)","yeast growth competition, sequencing",yeast,weak parent motif,"relative to: not given, higher = stronger binding",normalised enrichment score,0.0121
P2 W118V,"vanadate, free oxyanion",microfluidic competitive inhibition,"in vitro, cell-free expressed","not given, derived from inhibition constants, unchanged parent 676 nM",lower = stronger binding,oxyanion analog dissociation constant,652 nM
"PhoQ, residues 284 288 289 292 302 303 GASLAW","PhoP, residues 12 14 15 18 19 IQFRS (Escherichia coli, UniProt P23836)","Sort-seq, item: YFP reporter",E. coli,"PhoQ-PhoP variant library, with: 10 µM Mg2+","relative to: high Mg2+ state, higher = stronger signaling",fold induction,7.37

# For quick reference, copied from above (series 2):
Sequence,relative binding energy
AATTGTT,-3.27 ln ratio
CATCTAC,0.632 ln ratio
CATCCAA,0.0597 ln ratio
